Measurements of several laboratories.
A part holds a random share of what one study measured.
UniProt P27037, sequence (whole entry, looked up): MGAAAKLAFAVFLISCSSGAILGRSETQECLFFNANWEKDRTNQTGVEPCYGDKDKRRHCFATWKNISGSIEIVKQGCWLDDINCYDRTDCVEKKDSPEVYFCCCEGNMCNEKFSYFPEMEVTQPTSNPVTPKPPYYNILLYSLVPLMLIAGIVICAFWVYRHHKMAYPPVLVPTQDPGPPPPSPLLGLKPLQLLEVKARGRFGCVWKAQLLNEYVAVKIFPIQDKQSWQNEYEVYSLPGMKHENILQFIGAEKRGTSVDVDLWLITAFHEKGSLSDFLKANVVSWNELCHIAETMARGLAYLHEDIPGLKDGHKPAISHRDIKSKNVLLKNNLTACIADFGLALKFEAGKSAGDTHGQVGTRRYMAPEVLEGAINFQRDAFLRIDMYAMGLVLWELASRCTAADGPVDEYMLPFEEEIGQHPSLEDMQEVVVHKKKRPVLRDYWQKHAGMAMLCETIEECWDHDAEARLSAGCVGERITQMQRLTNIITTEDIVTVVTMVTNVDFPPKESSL
UniProt P30291, sequence (whole entry, looked up): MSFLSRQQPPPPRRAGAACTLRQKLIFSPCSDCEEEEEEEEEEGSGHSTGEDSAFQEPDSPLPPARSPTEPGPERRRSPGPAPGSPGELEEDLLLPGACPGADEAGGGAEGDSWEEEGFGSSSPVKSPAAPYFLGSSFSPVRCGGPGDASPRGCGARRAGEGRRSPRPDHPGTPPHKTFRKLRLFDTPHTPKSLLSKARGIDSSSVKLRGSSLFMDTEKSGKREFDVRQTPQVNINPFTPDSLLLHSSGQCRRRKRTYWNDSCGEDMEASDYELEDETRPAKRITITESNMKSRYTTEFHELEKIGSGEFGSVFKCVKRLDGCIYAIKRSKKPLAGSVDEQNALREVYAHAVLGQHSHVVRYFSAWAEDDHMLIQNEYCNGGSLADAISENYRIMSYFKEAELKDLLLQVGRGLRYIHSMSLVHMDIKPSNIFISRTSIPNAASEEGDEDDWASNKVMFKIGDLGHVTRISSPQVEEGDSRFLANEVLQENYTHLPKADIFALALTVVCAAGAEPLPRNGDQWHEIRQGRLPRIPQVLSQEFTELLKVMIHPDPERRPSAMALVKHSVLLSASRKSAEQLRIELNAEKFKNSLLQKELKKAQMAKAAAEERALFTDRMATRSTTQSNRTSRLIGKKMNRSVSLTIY
UniProt P49840, sequence (whole entry, looked up): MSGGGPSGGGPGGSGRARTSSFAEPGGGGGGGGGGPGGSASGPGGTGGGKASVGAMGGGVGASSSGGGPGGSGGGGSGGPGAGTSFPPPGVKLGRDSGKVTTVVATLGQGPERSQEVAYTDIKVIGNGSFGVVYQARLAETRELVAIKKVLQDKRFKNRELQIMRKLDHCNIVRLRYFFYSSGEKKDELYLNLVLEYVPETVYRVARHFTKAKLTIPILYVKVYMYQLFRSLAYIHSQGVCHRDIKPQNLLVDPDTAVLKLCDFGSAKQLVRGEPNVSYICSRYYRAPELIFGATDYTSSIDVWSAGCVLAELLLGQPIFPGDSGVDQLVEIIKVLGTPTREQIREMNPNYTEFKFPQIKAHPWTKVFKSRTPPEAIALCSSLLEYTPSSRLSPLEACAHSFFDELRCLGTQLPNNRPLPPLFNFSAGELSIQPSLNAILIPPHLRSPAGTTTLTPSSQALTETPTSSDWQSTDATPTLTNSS
UniProt Q9H1R3, sequence (whole entry, looked up): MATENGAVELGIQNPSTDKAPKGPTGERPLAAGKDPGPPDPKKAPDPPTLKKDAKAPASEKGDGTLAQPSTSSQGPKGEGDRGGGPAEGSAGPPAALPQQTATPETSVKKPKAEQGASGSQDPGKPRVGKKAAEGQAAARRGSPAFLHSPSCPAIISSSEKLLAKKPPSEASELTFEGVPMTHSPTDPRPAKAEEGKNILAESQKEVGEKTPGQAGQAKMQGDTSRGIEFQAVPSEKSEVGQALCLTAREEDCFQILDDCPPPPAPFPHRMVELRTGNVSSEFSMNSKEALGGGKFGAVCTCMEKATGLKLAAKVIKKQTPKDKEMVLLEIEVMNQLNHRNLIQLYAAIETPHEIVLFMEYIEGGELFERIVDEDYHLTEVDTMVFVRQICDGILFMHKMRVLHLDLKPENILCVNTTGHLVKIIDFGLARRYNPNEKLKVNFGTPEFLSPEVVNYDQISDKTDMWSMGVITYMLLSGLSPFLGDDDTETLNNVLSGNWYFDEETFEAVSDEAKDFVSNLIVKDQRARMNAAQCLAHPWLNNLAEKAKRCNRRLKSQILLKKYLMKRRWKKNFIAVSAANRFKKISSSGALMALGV

Set 1 — effect on: cell-free assay; method: competition with immobilised ligand; tested at: 1 µM; endpoint: remaining binding
Structure (SMILES): CCCOc1ccc([C@@H]2[C@@H](C(=O)O)[C@H](c3ccc4c(c3)OCO4)CN2CC(=O)Nc2c(CC)cccc2CC)cc1
MAPK14 (Homo sapiens, UniProt Q16539): 100%
AKT2 (Homo sapiens, UniProt P31751): 100%
CSNK1E (Homo sapiens, UniProt P49674): 98%
ZAP70 (Homo sapiens, UniProt P43403): 94%
CDC42BPA (Homo sapiens, UniProt Q5VT25): 90%
PRKCI (Homo sapiens, UniProt P41743): 80%
NEK5 (Homo sapiens, UniProt Q6P3R8): 55%
CDKL5 (Homo sapiens, UniProt O76039): 83%
EGFR (Homo sapiens, UniProt P00533, L858R/T790M): 87%
GSK3A (Homo sapiens, UniProt P49840): 100%
MET (Homo sapiens, UniProt P08581, Y1235D): 99%
WNK4 (Homo sapiens, UniProt Q96J92): 80%
EPHB1 (Homo sapiens, UniProt P54762): 91%
SRPK2 (Homo sapiens, UniProt P78362): 100%
WNK1 (Homo sapiens, UniProt Q9H4A3): 91%
Tyrosine-protein kinase ABL1, phosphorylated (ABL1, Homo sapiens, UniProt P00519, Y253F): 87%

Set 2 — tested at: 1 µM; endpoint: remaining binding
Compound: C[C@H]1CC[C@H](n2c3cnccc3c3cnc(Nc4ccc5c(n4)CCN(C(=O)CO)C5)nc32)CC1
ACVR2B (Homo sapiens, UniProt Q13705); binding, competition with immobilised ligand: 100%
MYLK2 (Homo sapiens, UniProt Q9H1R3); binding, competition with immobilised ligand: 87%
WEE1 (Homo sapiens, UniProt P30291); binding, competition with immobilised ligand: 100%
FRK (Homo sapiens, UniProt P42685); cell-free assay, competition with immobilised ligand: 84%
ERBB4 (Homo sapiens, UniProt Q15303); binding, competition with immobilised ligand: 84%
ACVR2A (Homo sapiens, UniProt P27037); cell-free assay, competition with immobilised ligand: 100%
ANKK1 (Homo sapiens, UniProt Q8NFD2); binding: 100%

Set 3 — effect on: enzyme activity; tested at: 1 µM; endpoint: inhibition
SMILES: C=CC(=O)N1CCC([C@@H]2CCNc3c(C(N)=O)c(-c4ccc(Oc5ccccc5)cc4)nn32)CC1
PIK3CA (Homo sapiens, UniProt P42336, E545K); inhibitor: 35%
PHKG2 (Homo sapiens, UniProt P15735); inhibitor: 0%
CDKL3 (Homo sapiens, UniProt Q8IVW4): 2%
LRRK2 (Homo sapiens, UniProt Q5S007); inhibitor: 0%
MAP2K4 (Homo sapiens, UniProt P45985); inhibitor: 36%
FLT3 (Homo sapiens, UniProt P36888, D835H); inhibitor: 18%
NEK2 (Homo sapiens, UniProt P51955); inhibitor: 11%
Tyrosine-protein kinase ABL1, non-phosphorylated (ABL1, Homo sapiens, UniProt P00519, Q252H); inhibitor: 44%
TAOK3 (Homo sapiens, UniProt Q9H2K8); inhibitor: 19%

Set 4 — effect on: enzyme activity; mode: inhibitor; tested at: 77 µM; endpoint: remaining activity
Target: DNA polymerase theta, ATPase domain (POLQ, Homo sapiens, UniProt O75417)
UniProt O75417, sequence (whole entry, unmodified, looked up): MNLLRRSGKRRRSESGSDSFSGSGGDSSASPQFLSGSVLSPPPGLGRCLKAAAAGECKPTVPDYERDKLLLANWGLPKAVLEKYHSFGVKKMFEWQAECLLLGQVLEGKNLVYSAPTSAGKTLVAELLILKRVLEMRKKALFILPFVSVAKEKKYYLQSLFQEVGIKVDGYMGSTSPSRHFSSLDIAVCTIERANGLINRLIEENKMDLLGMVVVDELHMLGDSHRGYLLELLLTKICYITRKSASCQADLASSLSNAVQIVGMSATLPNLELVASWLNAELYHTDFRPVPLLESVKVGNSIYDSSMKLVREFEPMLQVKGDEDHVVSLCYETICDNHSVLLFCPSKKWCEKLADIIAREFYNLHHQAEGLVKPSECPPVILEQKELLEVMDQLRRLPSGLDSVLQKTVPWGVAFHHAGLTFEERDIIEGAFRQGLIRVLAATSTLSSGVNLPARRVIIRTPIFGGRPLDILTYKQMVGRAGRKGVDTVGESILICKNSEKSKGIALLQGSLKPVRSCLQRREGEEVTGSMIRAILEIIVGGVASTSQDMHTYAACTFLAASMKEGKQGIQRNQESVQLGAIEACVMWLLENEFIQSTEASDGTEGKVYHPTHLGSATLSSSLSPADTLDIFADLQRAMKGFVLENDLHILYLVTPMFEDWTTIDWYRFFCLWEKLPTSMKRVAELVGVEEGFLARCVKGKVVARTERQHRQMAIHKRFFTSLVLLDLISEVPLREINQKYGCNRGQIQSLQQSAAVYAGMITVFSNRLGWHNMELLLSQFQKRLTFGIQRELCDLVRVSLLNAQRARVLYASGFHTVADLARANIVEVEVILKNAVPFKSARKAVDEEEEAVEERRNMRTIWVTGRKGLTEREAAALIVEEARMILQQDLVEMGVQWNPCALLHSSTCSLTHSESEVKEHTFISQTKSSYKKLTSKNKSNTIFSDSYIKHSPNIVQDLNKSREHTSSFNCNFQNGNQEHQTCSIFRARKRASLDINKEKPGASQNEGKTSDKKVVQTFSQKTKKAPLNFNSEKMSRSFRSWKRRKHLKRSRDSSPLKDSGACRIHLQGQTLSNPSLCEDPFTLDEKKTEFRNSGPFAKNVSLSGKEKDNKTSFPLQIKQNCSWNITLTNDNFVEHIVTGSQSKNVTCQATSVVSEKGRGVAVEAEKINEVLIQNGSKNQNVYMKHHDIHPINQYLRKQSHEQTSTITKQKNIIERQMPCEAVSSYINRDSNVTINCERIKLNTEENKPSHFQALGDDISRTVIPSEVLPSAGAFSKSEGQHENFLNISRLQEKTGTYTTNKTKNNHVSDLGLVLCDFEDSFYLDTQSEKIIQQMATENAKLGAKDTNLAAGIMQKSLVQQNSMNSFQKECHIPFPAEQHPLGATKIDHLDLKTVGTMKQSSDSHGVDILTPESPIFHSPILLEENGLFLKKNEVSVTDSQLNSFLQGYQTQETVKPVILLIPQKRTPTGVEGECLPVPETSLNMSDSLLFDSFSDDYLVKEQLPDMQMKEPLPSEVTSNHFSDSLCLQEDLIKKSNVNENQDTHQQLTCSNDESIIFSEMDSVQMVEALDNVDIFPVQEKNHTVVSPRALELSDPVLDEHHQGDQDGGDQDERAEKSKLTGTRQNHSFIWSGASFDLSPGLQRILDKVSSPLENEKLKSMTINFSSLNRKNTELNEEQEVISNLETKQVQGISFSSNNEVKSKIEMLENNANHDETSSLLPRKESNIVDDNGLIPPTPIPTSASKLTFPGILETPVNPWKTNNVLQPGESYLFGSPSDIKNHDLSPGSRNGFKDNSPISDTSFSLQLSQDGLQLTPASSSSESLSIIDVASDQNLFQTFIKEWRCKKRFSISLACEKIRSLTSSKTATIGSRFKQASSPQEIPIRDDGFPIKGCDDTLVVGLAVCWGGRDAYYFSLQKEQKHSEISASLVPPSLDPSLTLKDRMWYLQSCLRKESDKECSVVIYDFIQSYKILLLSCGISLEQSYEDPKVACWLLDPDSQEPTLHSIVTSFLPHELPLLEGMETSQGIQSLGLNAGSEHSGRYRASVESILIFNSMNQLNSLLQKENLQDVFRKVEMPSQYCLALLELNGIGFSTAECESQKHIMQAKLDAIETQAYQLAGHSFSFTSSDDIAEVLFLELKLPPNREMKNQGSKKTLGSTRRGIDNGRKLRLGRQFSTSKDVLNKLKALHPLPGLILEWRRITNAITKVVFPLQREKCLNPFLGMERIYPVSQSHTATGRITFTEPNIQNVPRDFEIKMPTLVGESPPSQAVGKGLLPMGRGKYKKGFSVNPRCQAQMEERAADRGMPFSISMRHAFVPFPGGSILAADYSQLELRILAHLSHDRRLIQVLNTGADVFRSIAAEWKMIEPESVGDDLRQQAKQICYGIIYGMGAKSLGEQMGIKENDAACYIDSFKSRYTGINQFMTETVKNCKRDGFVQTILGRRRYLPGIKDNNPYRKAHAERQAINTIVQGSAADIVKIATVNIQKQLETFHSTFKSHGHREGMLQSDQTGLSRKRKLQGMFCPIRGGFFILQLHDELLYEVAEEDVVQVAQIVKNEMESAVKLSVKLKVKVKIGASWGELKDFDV
Clc1ccccc1C(c1ccccc1)(c1ccccc1)n1ccnc1: 101%
COc1cc2ncnc(Nc3ccc(Oc4ccccc4)cc3)c2cc1OC: 104%
Nc1ncnc2nc(-c3ccc(N4CCOCC4)nc3)cc(-c3cccc(Br)c3)c12: 81%
CCC(=O)Nc1ccc2ncnc(Nc3cccc(Br)c3)c2c1: 120%
CNC(=O)c1ccc(N2C(=S)N(c3ccc(C#N)c(C(F)(F)F)c3)C(=O)C2(C)C)cc1F: 95.8%
CC[C@H](CO)Nc1nc(NCc2ccccc2)c2ncn(C(C)C)c2n1: 102%
CC(C)NC[C@@H](O)COc1cccc2ccccc12: 104%
O=C(NCC(O)CO)c1c(I)c(C(=O)NCC(O)CO)c(I)c(N(CCO)C(=O)CO)c1I (centres unmarked): 94%
COc1ccc(CNc2nc(N(CCO)CCO)nc3c2ncn3C(C)C)cc1: 113%
